Results gathered from unrelated publications.
Every numbered part comes from another study and shows a few of its results, in no order.
Sequence of UniProt Q9Y6R4 (whole entry, looked up): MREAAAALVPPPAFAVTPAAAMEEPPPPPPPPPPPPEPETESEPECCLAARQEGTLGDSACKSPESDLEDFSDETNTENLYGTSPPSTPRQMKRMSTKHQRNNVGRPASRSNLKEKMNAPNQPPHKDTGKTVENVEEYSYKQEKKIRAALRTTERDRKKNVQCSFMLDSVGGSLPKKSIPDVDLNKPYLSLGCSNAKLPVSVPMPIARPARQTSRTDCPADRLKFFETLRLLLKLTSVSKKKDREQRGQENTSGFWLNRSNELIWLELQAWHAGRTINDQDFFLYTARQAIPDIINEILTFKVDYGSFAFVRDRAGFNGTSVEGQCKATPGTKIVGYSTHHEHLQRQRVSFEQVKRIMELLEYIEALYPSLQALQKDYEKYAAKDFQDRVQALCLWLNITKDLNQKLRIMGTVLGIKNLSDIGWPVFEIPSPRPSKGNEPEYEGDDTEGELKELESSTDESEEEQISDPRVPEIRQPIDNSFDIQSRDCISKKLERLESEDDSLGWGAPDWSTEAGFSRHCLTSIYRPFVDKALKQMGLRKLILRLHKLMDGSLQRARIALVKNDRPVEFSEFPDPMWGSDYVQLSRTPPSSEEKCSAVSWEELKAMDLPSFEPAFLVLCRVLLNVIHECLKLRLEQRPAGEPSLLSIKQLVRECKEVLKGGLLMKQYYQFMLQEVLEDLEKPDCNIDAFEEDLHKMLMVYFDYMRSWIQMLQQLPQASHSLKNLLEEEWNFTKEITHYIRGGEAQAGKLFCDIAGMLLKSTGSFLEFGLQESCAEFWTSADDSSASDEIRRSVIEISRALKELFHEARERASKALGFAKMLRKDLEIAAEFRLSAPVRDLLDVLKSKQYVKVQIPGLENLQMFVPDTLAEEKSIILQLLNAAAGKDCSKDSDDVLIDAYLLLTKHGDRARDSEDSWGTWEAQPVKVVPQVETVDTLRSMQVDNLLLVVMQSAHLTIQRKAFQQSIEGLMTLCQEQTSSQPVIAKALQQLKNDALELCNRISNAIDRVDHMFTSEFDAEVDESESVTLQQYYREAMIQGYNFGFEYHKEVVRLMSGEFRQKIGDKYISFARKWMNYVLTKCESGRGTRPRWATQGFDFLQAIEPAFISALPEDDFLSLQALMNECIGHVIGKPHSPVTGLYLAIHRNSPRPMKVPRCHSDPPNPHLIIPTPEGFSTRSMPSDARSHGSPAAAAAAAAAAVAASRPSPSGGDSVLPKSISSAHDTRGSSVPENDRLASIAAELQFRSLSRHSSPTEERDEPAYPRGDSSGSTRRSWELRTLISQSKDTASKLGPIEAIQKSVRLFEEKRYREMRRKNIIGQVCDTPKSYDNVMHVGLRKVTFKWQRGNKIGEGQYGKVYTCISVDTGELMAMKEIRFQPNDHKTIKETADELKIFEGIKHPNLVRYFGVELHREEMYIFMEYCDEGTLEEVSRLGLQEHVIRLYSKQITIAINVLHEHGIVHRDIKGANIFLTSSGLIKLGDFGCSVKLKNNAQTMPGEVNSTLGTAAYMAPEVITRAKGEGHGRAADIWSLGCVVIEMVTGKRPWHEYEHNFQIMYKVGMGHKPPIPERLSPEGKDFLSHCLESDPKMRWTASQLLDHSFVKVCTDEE

Series 1
Target: RING finger protein unkempt homolog, zinc fingers 1-6, SBP tag (UNK, Homo sapiens, UniProt Q9C0B0, residues 30-357)
Sequence of UniProt Q9C0B0 (30-357, looked up): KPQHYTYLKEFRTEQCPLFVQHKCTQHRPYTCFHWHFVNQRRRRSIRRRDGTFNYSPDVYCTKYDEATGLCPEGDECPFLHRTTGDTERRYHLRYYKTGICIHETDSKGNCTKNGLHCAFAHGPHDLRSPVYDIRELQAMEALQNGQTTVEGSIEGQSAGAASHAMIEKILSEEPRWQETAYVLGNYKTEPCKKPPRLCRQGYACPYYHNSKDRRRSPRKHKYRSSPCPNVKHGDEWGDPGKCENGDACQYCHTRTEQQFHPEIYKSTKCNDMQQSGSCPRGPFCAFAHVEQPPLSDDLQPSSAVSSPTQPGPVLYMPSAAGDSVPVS
Method: RNA Bind-n-Seq
Molecule type: RNA
Sample: in vitro
Concentration: 100 nM
Setting: RNA with constant flanks, vertebrate orthologous sites, ends assumed
Reference: input RNA pool
Direction: higher = stronger binding
Measurement: bound/input enrichment
Constant ends, left off below: GGGAGUUCUACAGUCCGACGAUC … CAACAGAGGAUUGAGCAUCA
UUUCAAUCUCUUUUCCCCUGUCCUGAUUUUAAAAGCCCCCUCCUUUUUUUUUUCUUUUUUUAGGCAUAUGUAGUAAUAUUAGAAACAUUUAAUUUGGGAAACUUUGAUUCUUGAAAGAGA: 1.23 ratio
GGUCAUGUAUAGCAAUUAGAGUGGGUUGCCCUUCUACUUCUCCCAAGAAGAAAUCCCAUAUAGAUUCCUUUCAUGUCAGAUUAUACUGUUCUGAUUUUAUUUUCUAUUAUUUUUACAUAU: 0.803 ratio
GGCCUCCAACAGGCAAAUUCAGGGAGGAUAGGUUUCAGGGAAUAUAAAUUUAUUUAAUAUUAGUGGUCUUUAAGUAUAAACUUGAUGUAAUUGGUUUGGGAGGGGGCAGUGAUGAUGACU: 1.4 ratio
UGAGAGAGAGAUUCCUGUGAUUGCUAAUAUUUAAUUUGCUCUUUUUAAGAUAUGUUAAUCUGCAGUUCUUAAUAAAACUGAUAUGCUGGCAUUCCUUACCUAAGGAGGAUUGGCUUUGUA: 0.341 ratio
GCAAUGAAAAUACAGCCCUUCUCCCAGCCCCUUUUUUACUAGGAGAUACAAACGUUACCAUAGAAGAGCAAUUAAACUCAAUAAAUUUAUCUUUUCAGGAUGAUCCAGACUCCAGUACCA: 1.72 ratio
GGGCAGCCUGUGGUGGAAGCCCAUGCCCUGGCCUUGUCUCCUCUCCCUUCCACCCACUCCUAGUUACCUUUUUAUUUUUAACCACCAUGUGAUUAAGGUCGGAGCAGCCUUCCCACGACU: 3.4 ratio
UCCUCAACUUGUUCUAGCUUGUGAUCCUUCAAAGUUGGGUCAGGCAUUAGUGCUAGGUACUAGGAAUUUUCAUUUCUCUAUUGCCAUUGAUCAGAGAGACAGACAUGAAAAACAGGAAUA: 0.364 ratio
GUCCUUUCGCUCAGUCCCCGGCCAGGGUGGCGGGGCCAAGGUUUCACCUAGGAACCGCAUUUCAAAAAAAAAUUGUUUUUAAUUGUGGUACAGGAAGCGACGUUGCUGAAACAGCCUCUG: 0.245 ratio

Series 2
Target: Sal-like protein 4, full length isoform A (SALL4, Homo sapiens, UniProt Q9UJQ4, residues 1-1053)
Sequence of UniProt Q9UJQ4 (whole entry, looked up): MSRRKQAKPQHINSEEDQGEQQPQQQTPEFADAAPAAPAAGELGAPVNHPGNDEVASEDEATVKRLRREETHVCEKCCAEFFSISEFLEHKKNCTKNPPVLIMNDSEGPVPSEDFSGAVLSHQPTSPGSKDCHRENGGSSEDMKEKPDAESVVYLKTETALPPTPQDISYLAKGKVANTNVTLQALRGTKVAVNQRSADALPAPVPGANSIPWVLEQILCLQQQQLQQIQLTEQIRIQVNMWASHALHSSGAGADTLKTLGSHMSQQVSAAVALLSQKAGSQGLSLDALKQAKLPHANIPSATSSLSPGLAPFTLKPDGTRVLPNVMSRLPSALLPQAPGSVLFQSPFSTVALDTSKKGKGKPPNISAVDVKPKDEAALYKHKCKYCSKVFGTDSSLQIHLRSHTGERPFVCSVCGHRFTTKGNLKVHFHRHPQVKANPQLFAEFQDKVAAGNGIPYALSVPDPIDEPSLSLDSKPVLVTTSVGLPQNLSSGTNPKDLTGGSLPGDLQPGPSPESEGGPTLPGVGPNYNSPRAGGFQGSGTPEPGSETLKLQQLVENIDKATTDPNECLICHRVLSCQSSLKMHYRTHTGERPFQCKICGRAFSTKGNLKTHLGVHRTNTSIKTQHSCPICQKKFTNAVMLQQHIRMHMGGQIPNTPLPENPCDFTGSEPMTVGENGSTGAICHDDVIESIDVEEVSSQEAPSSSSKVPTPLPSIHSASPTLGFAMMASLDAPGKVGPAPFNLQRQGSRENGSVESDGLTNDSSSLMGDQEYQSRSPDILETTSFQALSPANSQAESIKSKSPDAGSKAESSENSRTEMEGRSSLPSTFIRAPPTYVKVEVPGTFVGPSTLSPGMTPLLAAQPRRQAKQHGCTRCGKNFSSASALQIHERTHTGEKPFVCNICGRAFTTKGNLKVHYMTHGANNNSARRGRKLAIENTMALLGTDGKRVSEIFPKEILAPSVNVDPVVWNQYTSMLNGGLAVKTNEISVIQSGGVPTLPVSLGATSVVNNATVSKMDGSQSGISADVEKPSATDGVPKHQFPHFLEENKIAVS
Method: universal PBM
Molecule type: double-stranded DNA, one strand shown
Sample: in vitro
Concentration: 600 nM
Setting: 8-mer, flanks averaged, mean of replicates
Direction: higher = stronger binding
Measurement: E-score
CTAACTGA: 0.0545
AGGAGGTG: -0.225
CTAGGACA: 0.0736
CTGAGGTA: 0.0374
GTGGTGTA: 0.114
ATCTTCAA: 0.292
GATCATGA: 0.111
AGTCTTGA: 0.00904

Series 3
Target: Prothrombin, mature alpha-thrombin (F2, Homo sapiens, UniProt P00734)
Method: aptamer microarray, sandwich
Molecule type: DNA with 2'F-ANA
Sample: in vitro
Concentration: 200 nM
Setting: whole 15-mer aptamer, many near background
With: Cy3 exosite-II aptamer, 400 nM
Direction: higher = stronger binding
Measurement: mean fluorescence intensity
Oligonucleotide: GGTTGGTGTGGTTGG
2'F-ANA at 2 3 5 6 9 10 11 13: 47.7 a.u.
2'F-ANA at 2 8 10 11 12 15: 144 a.u.
2'F-ANA at 1 3 4 8 9 12 15: 425 a.u.
2'F-ANA at 1 2 3 4 11 13 14: 59.4 a.u.
2'F-ANA at 1 3 8 11 12 14 15: 136 a.u.
2'F-ANA at 1 2 4 5 10 12 14: 49.6 a.u.
2'F-ANA at 1 3 4 7 8 10 11 12: 95.7 a.u.
2'F-ANA at 2 5 6 11 12 14 15: 50.3 a.u.

Mixed results
CCC(=O)N[C@@H]1CC[C@H](C(=O)N(C)c2ccc(-c3nc4ccccc4o3)cc2)C1  remaining binding (Mitogen-activated protein kinase kinase kinase 4 (MAP3K4, Homo sapiens, UniProt Q9Y6R4); cell-free assay, competition with immobilised ligand; 1 µM): 83%

A few entries again (series 3):
2'F-ANA at 1 2 4 5 10 12 14: 49.6 a.u.
2'F-ANA at 1 3 4 7 8 10 11 12: 95.7 a.u.
